Published values from different studies.
Each numbered part is a random draw from the data of one study; scales do not carry over between parts.
UniProt P42336, sequence (whole entry, unmodified, looked up): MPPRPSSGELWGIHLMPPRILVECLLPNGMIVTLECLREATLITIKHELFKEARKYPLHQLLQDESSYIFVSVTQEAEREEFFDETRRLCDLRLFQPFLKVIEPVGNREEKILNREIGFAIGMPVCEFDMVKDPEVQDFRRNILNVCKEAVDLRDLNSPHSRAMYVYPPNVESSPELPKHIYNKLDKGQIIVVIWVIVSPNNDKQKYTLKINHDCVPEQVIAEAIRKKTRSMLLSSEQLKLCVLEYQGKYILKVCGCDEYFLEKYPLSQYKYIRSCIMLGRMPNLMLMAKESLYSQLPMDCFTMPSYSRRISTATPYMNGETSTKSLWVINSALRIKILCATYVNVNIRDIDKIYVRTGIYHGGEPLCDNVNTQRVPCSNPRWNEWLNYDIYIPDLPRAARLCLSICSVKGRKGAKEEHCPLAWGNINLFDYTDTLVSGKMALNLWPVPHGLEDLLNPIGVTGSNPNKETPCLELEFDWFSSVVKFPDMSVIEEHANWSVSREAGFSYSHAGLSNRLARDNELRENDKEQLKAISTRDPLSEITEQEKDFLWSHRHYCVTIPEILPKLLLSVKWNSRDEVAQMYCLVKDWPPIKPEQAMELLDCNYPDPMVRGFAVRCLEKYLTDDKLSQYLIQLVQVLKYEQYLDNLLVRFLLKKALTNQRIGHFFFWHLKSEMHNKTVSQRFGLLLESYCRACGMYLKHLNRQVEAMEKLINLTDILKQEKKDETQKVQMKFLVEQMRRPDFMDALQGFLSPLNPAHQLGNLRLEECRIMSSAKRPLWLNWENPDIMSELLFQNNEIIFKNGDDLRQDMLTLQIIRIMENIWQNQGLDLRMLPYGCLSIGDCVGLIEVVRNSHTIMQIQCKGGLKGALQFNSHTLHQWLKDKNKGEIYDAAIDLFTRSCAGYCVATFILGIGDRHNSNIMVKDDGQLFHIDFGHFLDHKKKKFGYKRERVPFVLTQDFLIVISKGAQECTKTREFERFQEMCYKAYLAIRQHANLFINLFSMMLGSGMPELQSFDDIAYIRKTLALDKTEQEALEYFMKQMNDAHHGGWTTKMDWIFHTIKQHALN
UniProt Q9UPE1, sequence (whole entry, looked up): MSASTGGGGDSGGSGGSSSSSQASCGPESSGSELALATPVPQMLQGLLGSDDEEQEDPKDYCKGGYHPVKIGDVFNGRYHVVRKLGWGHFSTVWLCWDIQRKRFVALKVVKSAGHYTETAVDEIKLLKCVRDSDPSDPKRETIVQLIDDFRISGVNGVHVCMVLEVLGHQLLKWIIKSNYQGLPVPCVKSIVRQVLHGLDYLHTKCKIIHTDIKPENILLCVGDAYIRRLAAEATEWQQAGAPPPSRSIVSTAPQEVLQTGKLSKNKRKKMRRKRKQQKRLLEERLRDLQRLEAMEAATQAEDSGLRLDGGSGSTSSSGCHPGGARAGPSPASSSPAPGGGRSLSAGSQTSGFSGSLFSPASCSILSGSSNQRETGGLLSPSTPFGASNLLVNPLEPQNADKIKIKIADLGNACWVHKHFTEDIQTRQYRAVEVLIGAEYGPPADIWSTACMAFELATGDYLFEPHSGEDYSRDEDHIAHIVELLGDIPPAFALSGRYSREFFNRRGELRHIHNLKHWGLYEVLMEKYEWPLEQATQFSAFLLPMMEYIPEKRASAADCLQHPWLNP
UniProt P25098, sequence (whole entry, looked up): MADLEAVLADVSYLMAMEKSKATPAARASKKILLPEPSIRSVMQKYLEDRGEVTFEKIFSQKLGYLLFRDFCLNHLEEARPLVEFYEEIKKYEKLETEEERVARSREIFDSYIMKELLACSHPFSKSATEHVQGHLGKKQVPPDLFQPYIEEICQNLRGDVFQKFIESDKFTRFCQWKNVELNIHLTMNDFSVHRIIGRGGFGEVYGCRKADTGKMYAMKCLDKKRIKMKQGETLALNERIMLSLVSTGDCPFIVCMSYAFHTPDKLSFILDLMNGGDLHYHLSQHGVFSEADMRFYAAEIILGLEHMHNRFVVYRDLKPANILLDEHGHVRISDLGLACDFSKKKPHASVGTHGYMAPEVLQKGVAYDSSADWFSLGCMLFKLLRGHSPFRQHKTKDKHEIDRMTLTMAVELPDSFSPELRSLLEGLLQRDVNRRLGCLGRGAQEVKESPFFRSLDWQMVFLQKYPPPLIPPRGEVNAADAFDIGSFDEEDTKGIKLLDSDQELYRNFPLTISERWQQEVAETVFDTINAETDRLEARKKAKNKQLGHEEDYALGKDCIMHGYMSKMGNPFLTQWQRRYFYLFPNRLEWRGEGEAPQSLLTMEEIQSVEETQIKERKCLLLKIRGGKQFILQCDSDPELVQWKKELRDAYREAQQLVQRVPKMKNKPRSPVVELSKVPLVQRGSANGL
UniProt O00141, sequence (whole entry, looked up): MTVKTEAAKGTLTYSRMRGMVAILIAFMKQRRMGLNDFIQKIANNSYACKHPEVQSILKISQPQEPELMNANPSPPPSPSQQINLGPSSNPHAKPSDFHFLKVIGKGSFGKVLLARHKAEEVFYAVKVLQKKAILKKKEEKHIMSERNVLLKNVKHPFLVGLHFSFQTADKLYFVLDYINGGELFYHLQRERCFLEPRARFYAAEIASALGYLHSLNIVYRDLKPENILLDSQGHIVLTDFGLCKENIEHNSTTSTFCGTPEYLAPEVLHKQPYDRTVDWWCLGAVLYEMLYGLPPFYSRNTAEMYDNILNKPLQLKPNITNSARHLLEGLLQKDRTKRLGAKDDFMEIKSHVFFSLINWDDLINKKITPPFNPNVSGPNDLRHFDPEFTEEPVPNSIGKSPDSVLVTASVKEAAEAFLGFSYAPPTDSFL
UniProt P07949, sequence (whole entry, unmodified, looked up): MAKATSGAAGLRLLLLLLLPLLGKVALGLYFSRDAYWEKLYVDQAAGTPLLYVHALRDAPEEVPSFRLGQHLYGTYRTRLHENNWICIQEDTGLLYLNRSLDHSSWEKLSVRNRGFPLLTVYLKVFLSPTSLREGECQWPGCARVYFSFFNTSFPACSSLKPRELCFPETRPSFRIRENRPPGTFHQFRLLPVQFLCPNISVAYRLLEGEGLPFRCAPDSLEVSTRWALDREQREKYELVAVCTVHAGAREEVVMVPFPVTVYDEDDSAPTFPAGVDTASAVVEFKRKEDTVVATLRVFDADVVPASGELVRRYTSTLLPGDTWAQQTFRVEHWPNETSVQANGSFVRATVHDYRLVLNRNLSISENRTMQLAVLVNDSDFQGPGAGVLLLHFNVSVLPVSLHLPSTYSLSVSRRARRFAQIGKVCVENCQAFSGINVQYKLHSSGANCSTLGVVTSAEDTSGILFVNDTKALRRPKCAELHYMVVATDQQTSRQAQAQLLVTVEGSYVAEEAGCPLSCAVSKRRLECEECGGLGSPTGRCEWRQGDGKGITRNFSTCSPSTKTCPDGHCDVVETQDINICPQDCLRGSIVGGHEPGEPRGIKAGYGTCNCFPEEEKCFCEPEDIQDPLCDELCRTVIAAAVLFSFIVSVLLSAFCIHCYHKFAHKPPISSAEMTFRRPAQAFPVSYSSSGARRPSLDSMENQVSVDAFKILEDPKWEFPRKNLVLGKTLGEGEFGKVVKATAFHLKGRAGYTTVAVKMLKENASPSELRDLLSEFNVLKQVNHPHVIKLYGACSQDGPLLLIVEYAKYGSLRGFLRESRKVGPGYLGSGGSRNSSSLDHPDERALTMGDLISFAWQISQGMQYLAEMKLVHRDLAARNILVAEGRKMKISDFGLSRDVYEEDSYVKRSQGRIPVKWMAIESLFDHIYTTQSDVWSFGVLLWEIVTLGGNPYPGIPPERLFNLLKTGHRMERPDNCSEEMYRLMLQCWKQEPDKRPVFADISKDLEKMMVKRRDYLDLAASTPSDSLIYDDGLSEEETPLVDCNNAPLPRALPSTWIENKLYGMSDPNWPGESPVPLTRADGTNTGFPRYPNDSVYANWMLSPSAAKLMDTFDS

Sample 1
Target: Ephrin type-A receptor 8 (EPHA8, Homo sapiens, UniProt P29322)
UniProt P29322, sequence (whole entry, looked up): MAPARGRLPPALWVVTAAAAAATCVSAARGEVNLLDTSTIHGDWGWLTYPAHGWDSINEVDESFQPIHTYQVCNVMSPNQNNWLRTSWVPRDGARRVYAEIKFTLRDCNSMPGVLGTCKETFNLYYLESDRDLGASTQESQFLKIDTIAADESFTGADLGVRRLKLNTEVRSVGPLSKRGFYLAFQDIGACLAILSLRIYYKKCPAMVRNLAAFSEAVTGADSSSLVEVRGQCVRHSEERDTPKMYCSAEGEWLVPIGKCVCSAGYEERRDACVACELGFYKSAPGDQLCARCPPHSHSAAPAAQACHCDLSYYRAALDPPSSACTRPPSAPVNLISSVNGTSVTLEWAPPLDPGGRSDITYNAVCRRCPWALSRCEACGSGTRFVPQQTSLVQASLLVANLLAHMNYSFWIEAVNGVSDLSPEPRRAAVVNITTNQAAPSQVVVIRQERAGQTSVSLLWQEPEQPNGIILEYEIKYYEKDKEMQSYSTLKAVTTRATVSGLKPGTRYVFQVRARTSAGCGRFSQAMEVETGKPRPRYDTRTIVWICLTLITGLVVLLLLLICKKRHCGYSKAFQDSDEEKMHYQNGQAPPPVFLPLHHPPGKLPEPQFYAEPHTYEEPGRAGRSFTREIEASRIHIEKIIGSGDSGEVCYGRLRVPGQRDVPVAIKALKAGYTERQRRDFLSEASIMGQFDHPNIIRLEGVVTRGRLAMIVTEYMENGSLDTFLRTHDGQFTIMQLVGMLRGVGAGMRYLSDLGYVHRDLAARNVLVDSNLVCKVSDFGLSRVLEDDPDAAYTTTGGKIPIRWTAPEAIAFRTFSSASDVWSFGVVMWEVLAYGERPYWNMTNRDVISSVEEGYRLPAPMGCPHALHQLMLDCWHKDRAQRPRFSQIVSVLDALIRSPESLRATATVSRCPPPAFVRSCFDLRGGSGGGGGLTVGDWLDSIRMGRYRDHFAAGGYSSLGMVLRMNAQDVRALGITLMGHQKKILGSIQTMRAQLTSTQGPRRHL
Observed: enzyme activity
Mode: inhibitor
Concentration: 0.5 µM
Reference: control
Endpoint: remaining activity
O=C1Cc2c([nH]c3ccc([N+](=O)[O-])cc23)-c2ccccc2N1: 104%
N#CC(=C(N)Sc1ccc(N)cc1)c1ccccc1C(F)(F)F: 94.1%
Cc1cc(Nc2nc(-c3ccccc3)nc3ccccc23)n[nH]1: 98.2%
O=C1NC(=O)C(c2c[nH]c3ccccc23)=C1c1c[nH]c2ccccc12: 103%
CC(=O)c1ccc(N2CCOCC2)cc1O: 101%
CC(C)(C)n1nc(Cc2cccc3ccccc23)c2c(N)ncnc21: 66.8%
CSc1nc(-c2ccnc(N[C@@H](C)c3ccccc3)c2)c(-c2ccc(F)cc2)[nH]1 (racemic): 82.2%
O=S(=O)(NCCNC/C=C/c1ccc(Br)cc1)c1cccc2cnccc12: 118%
CC#CC(=O)Nc1cc2c(Nc3ccc(F)c(Cl)c3)ncnc2cn1: 100%
Nc1nccc(-c2c(-c3ccc(F)cc3)ncn2C2CCNCC2)n1: 101%
CC[n+]1c(/C=C/N(C)c2ccccc2)n(-c2ccccc2)c2ccc(-c3nc4ccccc4s3)cc21: 96.3%

Sample 2
SMILES: Cc1nccc(COC(=O)N2C[C@@H]3[C@@H](CNC(=O)c4ccc5[nH]nnc5c4)[C@@H]3C2)n1
Observed: cell-free assay
Method: competition with immobilised ligand
Concentration: 1 µM
Endpoint: remaining binding
GRK2 (Homo sapiens, UniProt P25098): 100%
SYK (Homo sapiens, UniProt P43405): 100%
SRPK3 (Homo sapiens, UniProt Q9UPE1): 100%
PIK3CA (Homo sapiens, UniProt P42336, E545A): 87%
PRKACA (Homo sapiens, UniProt P17612): 88%
SGK1 (Homo sapiens, UniProt O00141): 100%
RET (Homo sapiens, UniProt P07949, V804M): 100%
PIK3CA (Homo sapiens, UniProt P42336, H1047L): 79%
PNCK (Homo sapiens, UniProt Q6P2M8): 83%

Sample 3
Species: mouse
Sample: microsomes or S9
Concentration: 2 µM
Time: 0.5 h
Endpoint: remaining compound
CN(Cc1cccnc1)C(=O)c1c(OCC2CC2)cc(=O)n2c1CCCCC2: 5.33%
CC(=O)c1c(C)n(S(=O)(=O)c2ccc(C)cc2)c2ccc(NS(=O)(=O)c3ccc(C)cc3)cc12: 3.33%
CC(C)N1/C(=C/C2=Cc3ccccc3OC2)C(=O)c2ccccc2S1(=O)=O: 3.02%
O=[N+]([O-])c1c(Nc2cc(F)cc(Cl)c2)ccc2nonc12: 11.3%
O=c1c(C2CCCCC2)c(O)nc2n1CC(O)CS2 (centres unmarked): 72.7%
CN1C(=O)N(C)C2(CCN(CCOc3ccccc3)C2)C1=O (centres unmarked): 43.3%
CCC(C)C1Nc2ccc(C(=O)NCC(C)CN(CC)CC)cc2NC1=O (centres unmarked): 47.8%
Cc1c(C(=O)OC(C)C)sc2ncn(CC(=O)O)c(=O)c12: 84.1%
CCC(CC)C1CC(NC(=O)Nc2c(C)ccn(C)c2=O)CCO1 (centres unmarked): 46.5%
Cc1cc(CNc2ccc(-c3nc(CCCc4ccccc4)no3)cn2)n[nH]1: 47.2%
CCN1CCN(C2(CNc3oc(-c4ccc(Br)o4)nc3C#N)CCCCC2)CC1: 57.3%
Cc1ccc(S(=O)(=O)N2CCCC(C(=O)Nc3ccc4c(c3)OCCO4)C2)cc1 (centres unmarked): 21.9%
CCC(=O)c1ccc(OCCCn2cnc3ccccc32)cc1: 2.9%
CC(C)(C)OC(=O)c1ccc(-c2c[nH]c(-c3ccc(S(C)(=O)=O)c(F)c3)n2)cc1: 70.6%
c1ccc(C2CC(c3cccs3)Nc3ncnn32)cc1 (centres unmarked): 1.65%
O=c1c2ccccc2nc(-c2ccco2)n1-c1cccc2ccccc12: 82.8%
CS(=O)(=O)NCCOc1ccccc1-c1ccccc1: 98.9%
Cc1cc2c(cc1S(=O)(=O)N(C)CC1OC3CCCCC3c3sccc31)NC(=O)CO2 (centres unmarked): 83.6%
COc1ccccc1NC(=O)C1c2ccccc2Oc2ccccc21: 0.643%
O=C(Cn1cnc(C2CC2)cc1=O)N1CCC(N2CC(=O)N(c3ccccc3)C2=O)CC1: > 99%
CCOC(=O)c1c(C)c(CCC(=O)NCCN2CCCCC2)n(C)c1C: 32.6%
CCCCN(C)C(=O)CSc1nnc2c3cc(-c4cc(C)ccc4C)nn3ccn12: 80.2%
Cc1nc(N2CCN(c3ccccn3)CC2)nc2c1C(=O)CC(c1cccs1)C2 (centres unmarked): 34.2%
c1ccc(Cn2c(-c3ccc(Oc4ccccc4)cc3)cn3ncnc23)cc1: 0.115%
NC(N)=NC(=O)c1coc(-c2cc(F)cc(F)c2)c1: 74.6%

Sample 4
Sample: hydrocarbon/water
pH: 7.4
Endpoint: logD
CC[C@@H]1C(=O)N(C)[C@@H](C)C(=O)N[C@@H](CC(C)C)C(=O)N2CCC[C@@H]2C(=O)N(C)[C@@H](C)C(=O)N[C@@H](CC(C)C)C(=O)N1C: 0.488
CC(C)C[C@@H]1NC(=O)[C@H](Cc2ccc(O)cc2)NC(=O)[C@H]2CCCN2C(=O)[C@H](CC2CCCCC2)NC(=O)[C@H](CC2CCCCC2)NC(=O)[C@@H](C)NC1=O: 0.0833
CCC[C@@H]1NC(=O)[C@H](C)N(C)C(=O)[C@H](CC(C)C)NC(=O)Cn2cc(nn2)CN(C)C(=O)[C@H](CC(C)C)NC(=O)[C@H](C)N(C)C(=O)[C@H](CC)NC(=O)[C@H](CC)N(C)C(=O)[C@H]2CCCN2C1=O: -1.59
CC(C)C[C@@H]1NC(=O)[C@H](C)N(C)C(=O)[C@H]2CCCN2C(=O)[C@H](CC(C)C)NC(=O)[C@H](C)N(C)C(=O)[C@@H](C)N(C)C1=O: -0.167
CCC[C@@H]1NC(=O)CN(CC)C(=O)[C@H](CC(C)C)NC(=O)Cn2cc(nn2)CN(C)C(=O)[C@H](CC(C)C)NC(=O)[C@H](C)N(C)C(=O)[C@H](CC(C)C)NC(=O)[C@H](C)N(C)C(=O)[C@H]2CCCN2C1=O: -1.47
